Measured values gathered from unrelated publications.
Several values in a cell are separate wells, animals, samples, runs or records. Numbers after ± are the reported error.
GBA2: Beta-glucosidase (GBA2, Homo sapiens, UniProt Q9HCG7)
Chain of UniProt Q9HCG7 (whole entry, looked up): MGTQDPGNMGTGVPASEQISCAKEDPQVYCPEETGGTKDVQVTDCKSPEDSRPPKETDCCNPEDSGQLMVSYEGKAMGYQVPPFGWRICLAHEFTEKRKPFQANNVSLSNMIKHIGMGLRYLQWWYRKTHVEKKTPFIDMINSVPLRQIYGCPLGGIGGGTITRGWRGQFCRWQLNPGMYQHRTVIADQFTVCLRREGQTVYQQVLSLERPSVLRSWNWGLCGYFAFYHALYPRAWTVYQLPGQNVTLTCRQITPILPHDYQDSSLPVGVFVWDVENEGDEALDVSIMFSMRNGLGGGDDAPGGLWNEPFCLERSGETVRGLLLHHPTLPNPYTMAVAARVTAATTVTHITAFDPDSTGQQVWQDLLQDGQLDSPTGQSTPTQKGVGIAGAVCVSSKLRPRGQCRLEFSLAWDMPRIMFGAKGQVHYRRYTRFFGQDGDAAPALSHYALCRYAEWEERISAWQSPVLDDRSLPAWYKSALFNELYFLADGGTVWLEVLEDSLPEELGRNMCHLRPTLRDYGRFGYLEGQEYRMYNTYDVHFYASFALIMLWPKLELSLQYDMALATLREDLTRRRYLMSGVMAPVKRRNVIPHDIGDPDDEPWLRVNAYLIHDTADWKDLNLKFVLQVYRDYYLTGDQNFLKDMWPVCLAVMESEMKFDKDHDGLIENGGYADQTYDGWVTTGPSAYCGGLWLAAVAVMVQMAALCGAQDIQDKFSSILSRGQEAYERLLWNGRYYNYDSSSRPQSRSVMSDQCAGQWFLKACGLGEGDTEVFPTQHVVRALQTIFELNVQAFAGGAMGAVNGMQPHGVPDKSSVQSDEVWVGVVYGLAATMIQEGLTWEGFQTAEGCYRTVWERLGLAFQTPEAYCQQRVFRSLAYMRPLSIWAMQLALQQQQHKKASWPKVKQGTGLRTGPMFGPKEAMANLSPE
CASP3: Caspase-3 (CASP3, Homo sapiens, UniProt P42574)
Chain of UniProt P42574 (whole entry, looked up): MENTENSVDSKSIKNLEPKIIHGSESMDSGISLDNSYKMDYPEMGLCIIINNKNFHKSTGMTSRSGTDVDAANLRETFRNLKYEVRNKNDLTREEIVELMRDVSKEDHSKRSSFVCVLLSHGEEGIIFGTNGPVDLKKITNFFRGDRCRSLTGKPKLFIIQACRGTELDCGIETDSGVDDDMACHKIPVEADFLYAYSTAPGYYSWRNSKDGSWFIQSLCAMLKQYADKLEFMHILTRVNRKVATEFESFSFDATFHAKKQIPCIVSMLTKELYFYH
DYNC1LI1: Cytoplasmic dynein 1 light intermediate chain 1 (DYNC1LI1, Homo sapiens, UniProt Q9Y6G9)
Chain of UniProt Q9Y6G9 (whole entry, looked up): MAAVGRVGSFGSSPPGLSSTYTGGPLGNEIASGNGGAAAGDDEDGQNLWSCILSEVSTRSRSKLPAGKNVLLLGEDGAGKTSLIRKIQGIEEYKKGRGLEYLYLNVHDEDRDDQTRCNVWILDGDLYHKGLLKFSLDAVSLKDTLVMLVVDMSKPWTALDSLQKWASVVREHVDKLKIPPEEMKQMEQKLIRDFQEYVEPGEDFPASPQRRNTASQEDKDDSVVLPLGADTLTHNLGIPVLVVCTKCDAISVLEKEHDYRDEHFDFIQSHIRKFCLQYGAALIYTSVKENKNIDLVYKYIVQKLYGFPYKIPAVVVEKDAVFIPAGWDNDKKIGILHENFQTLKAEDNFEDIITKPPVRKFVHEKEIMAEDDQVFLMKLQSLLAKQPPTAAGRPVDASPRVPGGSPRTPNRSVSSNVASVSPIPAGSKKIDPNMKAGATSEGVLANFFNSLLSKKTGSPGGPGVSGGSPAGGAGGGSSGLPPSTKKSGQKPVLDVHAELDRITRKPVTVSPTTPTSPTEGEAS
B4GALT1: Beta-1,4-galactosyltransferase 1 (B4GALT1, Homo sapiens, UniProt P15291)
Chain of UniProt P15291 (whole entry, looked up): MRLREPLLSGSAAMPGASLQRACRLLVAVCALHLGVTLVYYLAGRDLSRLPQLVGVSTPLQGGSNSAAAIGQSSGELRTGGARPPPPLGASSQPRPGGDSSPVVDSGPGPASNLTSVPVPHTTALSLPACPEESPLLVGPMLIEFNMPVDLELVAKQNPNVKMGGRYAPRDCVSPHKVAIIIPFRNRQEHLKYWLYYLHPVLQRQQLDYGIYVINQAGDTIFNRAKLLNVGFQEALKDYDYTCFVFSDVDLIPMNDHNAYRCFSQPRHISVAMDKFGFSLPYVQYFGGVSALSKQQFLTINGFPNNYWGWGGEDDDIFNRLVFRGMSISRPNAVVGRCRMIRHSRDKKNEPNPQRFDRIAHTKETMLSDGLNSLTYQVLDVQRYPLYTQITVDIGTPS
PTH1R: Parathyroid hormone/parathyroid hormone-related peptide receptor (PTH1R, Homo sapiens, UniProt Q03431)
Chain of UniProt Q92633 (whole entry, unmodified, looked up): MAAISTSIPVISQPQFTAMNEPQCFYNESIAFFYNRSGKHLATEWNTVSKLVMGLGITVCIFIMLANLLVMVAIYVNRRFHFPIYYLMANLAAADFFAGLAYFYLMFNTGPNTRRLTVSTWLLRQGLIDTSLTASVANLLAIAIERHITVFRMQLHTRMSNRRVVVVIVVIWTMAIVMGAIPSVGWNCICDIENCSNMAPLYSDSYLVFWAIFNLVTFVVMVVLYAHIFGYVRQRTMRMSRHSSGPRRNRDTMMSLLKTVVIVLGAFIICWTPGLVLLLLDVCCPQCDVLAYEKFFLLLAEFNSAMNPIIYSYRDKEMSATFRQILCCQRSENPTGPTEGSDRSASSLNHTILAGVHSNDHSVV
Chain of UniProt Q06180 (whole entry, looked up): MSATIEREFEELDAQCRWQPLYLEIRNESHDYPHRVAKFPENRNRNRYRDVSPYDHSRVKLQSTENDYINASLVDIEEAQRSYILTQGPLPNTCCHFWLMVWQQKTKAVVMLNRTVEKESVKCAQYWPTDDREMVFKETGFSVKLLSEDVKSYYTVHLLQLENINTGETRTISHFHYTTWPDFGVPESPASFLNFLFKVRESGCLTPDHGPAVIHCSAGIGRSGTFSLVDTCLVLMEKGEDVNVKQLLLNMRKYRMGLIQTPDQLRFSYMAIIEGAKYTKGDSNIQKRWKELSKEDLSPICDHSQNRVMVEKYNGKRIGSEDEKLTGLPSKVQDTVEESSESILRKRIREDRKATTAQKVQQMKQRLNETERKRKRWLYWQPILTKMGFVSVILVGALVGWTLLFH
Chain of UniProt P63104 (whole entry, unmodified, looked up): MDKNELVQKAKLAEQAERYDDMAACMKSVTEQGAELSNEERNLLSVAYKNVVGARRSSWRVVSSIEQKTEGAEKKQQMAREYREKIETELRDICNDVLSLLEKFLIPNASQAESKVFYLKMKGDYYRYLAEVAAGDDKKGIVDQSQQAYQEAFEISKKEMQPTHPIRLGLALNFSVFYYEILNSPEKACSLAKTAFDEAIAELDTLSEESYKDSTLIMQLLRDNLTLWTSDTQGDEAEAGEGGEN
Chain of UniProt Q03431 (whole entry, looked up): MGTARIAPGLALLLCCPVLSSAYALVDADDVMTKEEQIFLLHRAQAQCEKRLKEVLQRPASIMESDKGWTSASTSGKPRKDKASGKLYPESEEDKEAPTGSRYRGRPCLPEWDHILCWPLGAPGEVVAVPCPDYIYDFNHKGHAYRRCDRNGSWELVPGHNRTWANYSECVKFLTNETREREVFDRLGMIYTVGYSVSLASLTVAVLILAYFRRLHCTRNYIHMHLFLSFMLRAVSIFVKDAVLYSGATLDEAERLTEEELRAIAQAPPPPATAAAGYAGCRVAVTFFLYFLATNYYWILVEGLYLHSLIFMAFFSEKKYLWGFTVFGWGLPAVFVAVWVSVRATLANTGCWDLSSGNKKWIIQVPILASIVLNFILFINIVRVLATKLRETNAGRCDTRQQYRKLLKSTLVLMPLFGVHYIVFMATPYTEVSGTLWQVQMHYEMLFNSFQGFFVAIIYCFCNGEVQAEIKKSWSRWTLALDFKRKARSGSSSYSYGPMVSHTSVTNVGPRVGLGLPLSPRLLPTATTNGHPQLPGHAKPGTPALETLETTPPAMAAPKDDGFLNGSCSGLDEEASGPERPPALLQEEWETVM
Chain of UniProt P50552 (whole entry, looked up): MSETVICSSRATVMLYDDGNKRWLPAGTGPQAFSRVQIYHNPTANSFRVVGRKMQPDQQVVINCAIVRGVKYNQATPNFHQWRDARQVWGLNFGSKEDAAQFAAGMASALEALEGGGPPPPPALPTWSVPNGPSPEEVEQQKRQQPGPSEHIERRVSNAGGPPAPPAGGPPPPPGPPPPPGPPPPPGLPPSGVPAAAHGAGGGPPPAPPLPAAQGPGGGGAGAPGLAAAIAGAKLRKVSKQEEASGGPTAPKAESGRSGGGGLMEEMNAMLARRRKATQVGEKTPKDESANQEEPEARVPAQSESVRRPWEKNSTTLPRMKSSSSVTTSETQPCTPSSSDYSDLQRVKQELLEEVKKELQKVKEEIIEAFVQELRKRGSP
Chain of UniProt Q9HB29 (whole entry, looked up): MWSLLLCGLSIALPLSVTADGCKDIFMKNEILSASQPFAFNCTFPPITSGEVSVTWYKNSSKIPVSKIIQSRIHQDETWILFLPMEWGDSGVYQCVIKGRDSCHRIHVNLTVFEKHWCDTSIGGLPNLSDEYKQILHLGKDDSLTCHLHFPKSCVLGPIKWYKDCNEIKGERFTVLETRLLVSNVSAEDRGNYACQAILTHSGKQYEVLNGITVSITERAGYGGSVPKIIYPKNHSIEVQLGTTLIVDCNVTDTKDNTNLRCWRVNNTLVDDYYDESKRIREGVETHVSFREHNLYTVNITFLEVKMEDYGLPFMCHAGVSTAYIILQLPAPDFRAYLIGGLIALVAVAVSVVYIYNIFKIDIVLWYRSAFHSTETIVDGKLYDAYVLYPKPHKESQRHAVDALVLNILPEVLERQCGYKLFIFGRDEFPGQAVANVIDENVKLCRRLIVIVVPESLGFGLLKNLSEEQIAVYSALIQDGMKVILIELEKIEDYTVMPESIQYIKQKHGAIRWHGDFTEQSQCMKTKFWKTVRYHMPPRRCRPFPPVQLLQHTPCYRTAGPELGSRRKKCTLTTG
Chain of UniProt P03146 (whole entry, looked up): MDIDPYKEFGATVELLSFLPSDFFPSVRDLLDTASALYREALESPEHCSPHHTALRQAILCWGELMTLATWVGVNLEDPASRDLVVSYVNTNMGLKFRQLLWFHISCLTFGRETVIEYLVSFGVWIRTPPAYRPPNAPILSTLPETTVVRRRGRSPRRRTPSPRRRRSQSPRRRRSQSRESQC

Under “EC50 fold change”, `O=C(NC[C@@H](Cc1ccc(F)cc1)N1CCC(O)(C(F)(F)F)CC1)C1(c2ccc(Cl)cc2)CCCC1` is recorded as 6.8 (Transient receptor potential cation channel subfamily A member 1 (TRPA1, Homo sapiens, UniProt O75762, I906A); calcium influx, agonist; baseline: I906A mutant over wild type).
With `OC[C@@H]1[C@@H](O)[C@H](O)[C@@H](O)CN1CCCCCOCc1ccccc1` the selectivity ratio was 300 (GBA2; inhibitor, 4MU-β-D-glucopyranoside; HEK293T homogenates overexpressing GBA2; baseline: GBA1 IC50 over GBA2 IC50).
The koff of `C=CC(=O)N1C[C@H](C)N(c2nc(OC[C@@]34CCCN3C[C@H](F)C4)nc3c(F)c(-c4ccc(F)c5sc(N)c(C#N)c45)c(C(F)(F)F)cc23)C[C@H]1C` is reported as 0.000748 ± 0.00011 s⁻¹ (GTPase KRas, GDP-bound (KRAS, Homo sapiens, UniProt P01116); SPR; wild type GDP-bound).
With `CCCCCCCN1C[C@H](O)[C@@H](O)[C@H](O)[C@@H]1CO` the selectivity ratio was 100 (GBA2; inhibitor, 4MU-β-D-glucopyranoside; HEK293T homogenates overexpressing GBA2; baseline: GCS IC50 over GBA2 IC50).
For `CC(=O)N[C@@H](CC(C)C)C(=O)N[C@@H](CCC(=O)O)C(=O)N[C@H](C(=O)N[C@@H](CC(=O)O)C(=O)COC(=O)c1c(C)cccc1C)[C@@H](C)OCc1ccccc1`, the kinact/KI was 345000 M⁻¹ s⁻¹ (CASP3; enzyme activity, inhibitor).
`N#Cc1cccc(-c2ccc(COCCCCCN3C[C@H](O)[C@@H](O)[C@H](O)[C@H]3CO)cc2)c1` has a selectivity ratio of 25 (GBA2; inhibitor, 4MU-β-D-glucopyranoside; HEK293T homogenates overexpressing GBA2; baseline: GCS IC50 over GBA2 IC50).
The kinact/KI of `CC(=O)N[C@@H](Cc1c[nH]c2ccccc12)C(=O)N[C@@H](CCCNC(=N)N)C(=O)N[C@@H](CO)C(=O)N[C@@H](CC(=O)O)C(=O)COC(=O)c1c(C)cccc1C` is reported as 6200 M⁻¹ s⁻¹ (CASP3; enzyme activity, inhibitor).
The selectivity ratio of `OC[C@@H]1[C@@H](O)[C@H](O)[C@@H](O)CN1CCCCOCCC12CC3CC(CC(C3)C1)C2` is reported as 311 (GBA2; inhibitor, 4MU-β-D-glucopyranoside; HEK293T homogenates overexpressing GBA2; baseline: GBA1 IC50 over GBA2 IC50).
For `CCCCCC(O)/C=C/C=O` (stereo not drawn), “isoTOP-ABPP competition ratio” read 2.6 (DYNC1LI1; competitive isoTOP-ABPP; proteome, soluble, MDA-MB-231; 100 µM, 60 min, added: iodoacetamide probe; baseline: DMSO over compound-treated, higher = stronger cysteine blockade).
`Nc1nc(SCc2ccc(Cl)cc2)nn1S(=O)(=O)C1CCCCC1` — result for “probe labeling increase”: 2.2 fold (Lysophospholipase-like protein 1 (LYPLAL1, Homo sapiens, UniProt Q5VWZ2); enzyme activity, activator, gel-based ABPP; purified protein; concentration not given, added: FP-rhodamine; baseline: DMSO).
`CC1(C)C[C@@H](Nc2cccc(-c3sc(C(=O)O)c(OCC(=O)O)c3Cl)c2)CCN1S(=O)(=O)Cc1cccc(NC(=O)CN2CCC(c3ccc4c(c3)oc(=O)n4C3CCC(=O)NC3=O)CC2)c1` (stereo partly drawn) gave a remaining protein of 70.5% and 66.9% (Tyrosine-protein phosphatase non-receptor type 2 (Ptpn2, Mus musculus, UniProt Q06180); degrader, Western blot; B16-F10; 0.01 µM).
With `CCCCCCCCCCCCCCCC(=O)OCC(CSC[C@H](N)C(=O)N[C@@H](CO)C(=O)N[C@@H](CCCCN)C(=O)N[C@@H](CCCCN)C(=O)N[C@@H](CCCCN)C(=O)N[C@@H](CCCCN)C(=O)NCCCCCC(=O)N[C@@H](CCCCN)C(=O)N[C@@H](CC(C)C)C(=O)N[C@H](C(=O)N[C@@H](Cc1ccccc1)C(=O)N[C@@H](Cc1ccccc1)C(=O)N[C@@H](Cc1ccc2ccccc2c1)C(=O)O)C(C)C)OC(=O)CCCCCCCCCCCCCCC` (stereo partly drawn) the fibril diameter was 73.4 nm (Amyloid-beta precursor protein, fibrillar amyloid-beta (APP, Homo sapiens, UniProt P05067); TEM; 2.0 eq, 5 h, fibril 2, added: APP 20 µM).
The selectivity ratio of `OC[C@@H]1[C@@H](O)[C@H](O)[C@@H](O)CN1CCCCCOCc1ccc(-c2ccccc2)cc1C(F)(F)F` is reported as 1670 (GBA2; inhibitor, 4MU-β-D-glucopyranoside; HEK293T homogenates overexpressing GBA2; baseline: GBA1 IC50 over GBA2 IC50).
With `O=c1cc(/C=C/c2ccc(N3CCCC3)cc2)oc(/C=C/c2ccc(N3CCCC3)cc2)c1` the fluorescence enhancement was 3.6 fold (Amyloid-beta precursor protein (APP, Homo sapiens, UniProt P05067); binding, fluorescence; 2 µM, 7.4 min, pH 10, Abeta pre-incubated 4 h, added: 20 µM pre-incubated Abeta species).
`CC(=O)N[C@@H](CC(C)C)C(=O)N[C@H](C(=O)N[C@@H](Cc1ccc(O)cc1)C(=O)N[C@@H](CC(=O)O)C(=O)COC(=O)c1c(C)cccc1C)C(C)(C)C` gave a kinact/KI of 33900 M⁻¹ s⁻¹ (CASP3; enzyme activity, inhibitor).
The fold change of `CCN(CC)C(CO)c1cccc2c(C)c(C)oc12` (stereo not drawn) is reported as 0.729 and 0.851 and 0.808 and 0.765 and 0.905 and 0.621 (Lysophosphatidic acid receptor 1 (LPAR1, Homo sapiens, UniProt Q92633, W271F); G-protein dissociation, agonist, NanoBiT; HEK-293T; 10 nM, W271F mutant; baseline: baseline luminescence).
For `CC(=O)N[C@@H](CCC(C)C)C(=O)N[C@@H](CCCC(=O)O)C(=O)N[C@@H](CO)C(=O)N[C@@H](CC(=O)O)C(=O)COC(=O)c1c(C)cccc1C`, the kinact/KI was 27400 M⁻¹ s⁻¹ (CASP3; enzyme activity, inhibitor).
`CC(C)=CCC/C(C)=C/CC/C(C)=C/CN1C[C@H](O)[C@@H](O)[C@H](O)[C@H]1CO` has a selectivity ratio of 87 (GBA2; inhibitor, 4MU-β-D-glucopyranoside; HEK293T homogenates overexpressing GBA2; baseline: GBA1 IC50 over GBA2 IC50).
`O=C(Nc1cc(F)c(F)c(F)c1)c1ccc(F)c(S(=O)(=O)N2CCC(O)CC2)c1` gave a koff of 0.179 s⁻¹ (Capsid protein (C, Hepatitis B virus genotype D subtype ayw, UniProt P03146); surface plasmon resonance; 25 °C).
`Cc1nc(-c2ccc(C(C)N3CCOCC3)cc2)c(Cl)c(=O)[nH]1` (stereo not drawn) gave a luminescence of 77300 a.u. (B4GALT1; enzyme activity, inhibitor, UDP-Glo; 100 µM; lower means stronger inhibition).
`CCCC[C@H](NC(=O)[C@H](CC(C)C)NC(=O)[C@H](CCC(N)=O)NC(=O)[C@@H](NC(=O)[C@H](CCC(=O)O)NC(=O)C(C)(C)NC(=O)[C@@H](NC(=O)C1(N)CCCC1)C(C)C)[C@@H](C)CC)C(=O)N[C@@H](Cc1c[nH]cn1)C(=O)N[C@@H](CCC(N)=O)C(=O)N[C@@H](CCCCNC(=N)N)C(=O)N[C@@H](C)C(=O)N[C@@H](CCCCNC(=O)[C@H](CCCNC(=N)N)NC(=O)CCCCCCCCCCCCCCCCC(=O)O)C(N)=O`: “Emax (normalized AUC)” 110 ± 3% (PTH1R; cAMP response, agonist, GloSensor cAMP; GP-2.3; ligand-on phase).
For `CC[C@H](NC(=O)[C@H](CC(C)C)NC(=O)[C@H](CC(=O)O)NC(C)=O)C(=O)N[C@@H](CC(=O)O)C(=O)COC(=O)c1c(C)cccc1C`, the kinact/KI was 1.79e+06 M⁻¹ s⁻¹ (CASP3; enzyme activity, inhibitor).
With `C[C@@H](Nc1nc(N[C@H](C)C(F)(F)F)nc(-c2cccc(Cl)n2)n1)C(F)(F)F` the maximum inhibition was 67 ± 4.4% (Isocitrate dehydrogenase [NADP] cytoplasmic (IDH1, Homo sapiens, UniProt O75874, R132C); 1 h preincubation).
`CCCCCCCCCCCCC/C=C/C=O` — result for “isoTOP-ABPP competition ratio”: 1.1 (DYNC1LI1; competitive isoTOP-ABPP; Ramos soluble proteome; 100 µM, 60 min, added: iodoacetamide probe; baseline: DMSO over compound-treated, higher = stronger cysteine blockade).
For `OC[C@H]1[C@@H](O)[C@H](O)[C@@H](O)CN1CCCC/C=C\C12CC3CC(CC(C3)C1)C2`, the selectivity ratio was 1790 (GBA2; inhibitor, 4MU-β-D-glucopyranoside; HEK293T homogenates overexpressing GBA2; baseline: GCS IC50 over GBA2 IC50).
`CC(C)[C@@H]1NC(=O)[C@H](Cc2ccccc2)NC(=O)CSC[C@@H](C(N)=O)NC(=O)[C@H](CCC(=O)O)NC(=O)[C@H](CO)NC(=O)[C@H](Cc2c[nH]c3cccc(Cl)c23)NC(=O)[C@H](C2CCCCC2)NC(=O)[C@H](C(C)C)NC(=O)[C@H](Cc2ccc(O)cc2)NC(=O)[C@H](CC(=O)O)NC(=O)[C@H](Cc2c[nH]c3ccccc23)NC(=O)[C@H](Cc2ccc(N)nc2)NC(=O)[C@H](Cc2c[nH]c3ccc(Cl)cc23)NC(=O)[C@H](CCC(=O)O)NC1=O` has a remaining activity of 60.8% (Interleukin-1 receptor-like 2 (IL1RL2, Homo sapiens, UniProt Q9HB29); reporter gene (SEAP), inhibitor, HEK-Blue IL-36R reporter; HEK-Blue IL-36R cells; 11.11 µM, 6 h, added: IL-36β 3 ng/mL).
For `CCCCCCCCOCCCCCN1C[C@H](O)[C@@H](O)[C@H](O)[C@H]1CO`, the selectivity ratio was 50 (GBA2; inhibitor, 4MU-β-D-glucopyranoside; HEK293T homogenates overexpressing GBA2; baseline: GBA1 IC50 over GBA2 IC50).
`CNC(=O)c1ccc(NC(=O)C(C(F)(F)F)C(F)(F)F)cc1`: IC50 “inactive” (Chymotrypsinogen A (Bos taurus, UniProt P00766); enzyme activity, inhibitor).
The luminescence of `Cc1cc(CC(C)NC(=O)c2cc(=O)[nH]c3ccc(F)cc23)[nH]n1` (stereo not drawn) is reported as 72000 a.u. (B4GALT1; enzyme activity, inhibitor, UDP-Glo; 10 µM; lower means stronger inhibition).
`CCCCCCCCCCCCCCCC(=O)N[C@@H](CCC(=O)O)C(=O)NCCCC[C@H](NC(=O)[C@H](CCCCNC(=N)N)NC(=O)[C@H](CCC(N)=O)NC(=O)[C@H](Cc1c[nH]cn1)NC(=O)[C@H](CCCC)NC(=O)[C@H](CC(C)C)NC(=O)[C@H](CCC(N)=O)NC(=O)[C@@H](NC(=O)[C@H](CCC(=O)O)NC(=O)C(C)(C)NC(=O)[C@@H](NC(=O)C1(N)CCCC1)C(C)C)[C@@H](C)CC)C(N)=O` has an Emax of 95.2 ± 6.8% (PTH1R; cAMP response, agonist, GloSensor cAMP; GP-2.3; ligand-on phase).
With `Fc1ccc(Nc2nc(NC3CCCCC3)c3ccccc3n2)cc1F` the maximal inhibition was -12.2% (Beta-2 adrenergic receptor (ADRB2, Homo sapiens, UniProt P07550, T164V); β-arrestin2 recruitment, antagonist, BRET; mutant T164V; baseline: isoprenaline maximal response).
With `CC[C@H](C)[C@H](NC(=O)[C@@H](N)CCCCN)C(=O)N1CCC[C@H]1C(=O)N[C@@H](Cc1ccc(O)cc1)C(=O)N[C@@H](Cc1ccccc1)C(=O)N[C@@H](Cc1c[nH]cn1)C(=O)N[C@@H](C)C(=O)NCC(=O)NCC(=O)N[C@@H](CO)C(=O)N[C@@H](CCCCN)C(=O)N[C@@H](CS)C(=O)N[C@@H](CO)C(=O)N[C@H](C(=O)N[C@@H](Cc1c[nH]c2ccccc12)C(=O)N1CCC[C@H]1C(=O)N[C@@H](CC(C)C)C(=O)N1CCC[C@H]1C(=O)N[C@@H](CCC(N)=O)C(=O)N1CCC[C@H]1C(=O)N[C@@H](CO)C(=O)O)[C@@H](C)OP(=O)(O)O` the ΔG was -39.1 kJ/mol and -39.2 kJ/mol (14-3-3 protein zeta/delta (YWHAZ, Homo sapiens, UniProt P63104); binding, ITC; 37 °C, short injection delay, added: phosphorylated PRLR peptide).
`CN1CCCC1CC(=O)N1CCC(c2cccc(O)c2)CC1` (stereo not drawn) gave a luminescence of 59000 a.u. (B4GALT1; enzyme activity, inhibitor, UDP-Glo; 10 µM; lower means stronger inhibition).
With `CCOC(=O)C1CC(C)C2C=CC3CCN(C(=O)C4CCC5C=CC6(CCCN6C(=O)C(Cc6ccccc6Cl)NC(C)=O)C(=O)N54)C3C(=O)N12` (stereo not drawn) the ligand efficiency was -660 J/(mol·heavy atom) (Vasodilator-stimulated phosphoprotein, EVH1 domain (VASP, Homo sapiens, UniProt P50552); isothermal titration calorimetry).
For `CC(C)(C(=O)N1CCC(Nc2nc3c(c(=O)[nH]2)CCCC3)CC1)c1ccc(Cl)cc1`, the Hill slope was 0.96 (MRGPRD (Homo sapiens, UniProt Q8TDS7, F242A); miniGq recruitment, agonist, BRET; HEK293T; F242A mutant).
`N[C@H]1CC[C@H](Nc2nccc(-c3cccnc3Oc3ccc(NC(=O)NC4CC4)c4ccccc34)n2)CC1`: “log2 LFQ intensity” 20.5 and 20.7 and 20.6 and 21.4 (DYRK1A and DYRK1B (human); kinobead competition pulldown; HEK293/HCT116 lysate mixture; 10 µM, 1 h, 4 °C; lower = stronger competition).

A few entries again:
`O=C(Nc1cc(F)c(F)c(F)c1)c1ccc(F)c(S(=O)(=O)N2CCC(O)CC2)c1` gave a koff of 0.179 s⁻¹ (Capsid protein (C, Hepatitis B virus genotype D subtype ayw, UniProt P03146); surface plasmon resonance; 25 °C).
`Cc1nc(-c2ccc(C(C)N3CCOCC3)cc2)c(Cl)c(=O)[nH]1` (stereo not drawn) gave a luminescence of 77300 a.u. (B4GALT1; enzyme activity, inhibitor, UDP-Glo; 100 µM; lower means stronger inhibition).
